Experimental data of several laboratories.
Each numbered part is a random draw from the data of one study; scales do not carry over between parts.
Chain of UniProt Q9BXA7 (whole entry, looked up): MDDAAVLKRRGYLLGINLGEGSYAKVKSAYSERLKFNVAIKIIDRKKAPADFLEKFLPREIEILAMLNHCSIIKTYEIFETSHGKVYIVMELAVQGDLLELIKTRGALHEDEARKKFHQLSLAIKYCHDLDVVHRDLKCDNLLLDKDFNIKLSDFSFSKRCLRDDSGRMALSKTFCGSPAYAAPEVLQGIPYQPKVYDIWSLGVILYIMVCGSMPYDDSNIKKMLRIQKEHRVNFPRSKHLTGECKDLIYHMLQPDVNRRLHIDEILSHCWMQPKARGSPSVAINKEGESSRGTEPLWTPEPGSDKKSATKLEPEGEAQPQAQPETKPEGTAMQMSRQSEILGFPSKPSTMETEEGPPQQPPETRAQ
Chain of UniProt Q9UEE5 (whole entry, looked up): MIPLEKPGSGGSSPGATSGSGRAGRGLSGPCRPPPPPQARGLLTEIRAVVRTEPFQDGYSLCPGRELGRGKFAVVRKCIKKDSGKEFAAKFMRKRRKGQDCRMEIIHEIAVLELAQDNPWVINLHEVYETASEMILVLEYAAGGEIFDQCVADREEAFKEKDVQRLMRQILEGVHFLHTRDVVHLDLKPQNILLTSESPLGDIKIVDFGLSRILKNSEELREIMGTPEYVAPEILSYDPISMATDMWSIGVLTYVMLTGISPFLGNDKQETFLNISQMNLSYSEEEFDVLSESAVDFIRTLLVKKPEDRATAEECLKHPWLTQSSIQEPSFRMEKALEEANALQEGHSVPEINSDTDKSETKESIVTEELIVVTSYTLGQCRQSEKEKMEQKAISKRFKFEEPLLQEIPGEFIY
Chain of UniProt Q8WTQ7 (whole entry, looked up): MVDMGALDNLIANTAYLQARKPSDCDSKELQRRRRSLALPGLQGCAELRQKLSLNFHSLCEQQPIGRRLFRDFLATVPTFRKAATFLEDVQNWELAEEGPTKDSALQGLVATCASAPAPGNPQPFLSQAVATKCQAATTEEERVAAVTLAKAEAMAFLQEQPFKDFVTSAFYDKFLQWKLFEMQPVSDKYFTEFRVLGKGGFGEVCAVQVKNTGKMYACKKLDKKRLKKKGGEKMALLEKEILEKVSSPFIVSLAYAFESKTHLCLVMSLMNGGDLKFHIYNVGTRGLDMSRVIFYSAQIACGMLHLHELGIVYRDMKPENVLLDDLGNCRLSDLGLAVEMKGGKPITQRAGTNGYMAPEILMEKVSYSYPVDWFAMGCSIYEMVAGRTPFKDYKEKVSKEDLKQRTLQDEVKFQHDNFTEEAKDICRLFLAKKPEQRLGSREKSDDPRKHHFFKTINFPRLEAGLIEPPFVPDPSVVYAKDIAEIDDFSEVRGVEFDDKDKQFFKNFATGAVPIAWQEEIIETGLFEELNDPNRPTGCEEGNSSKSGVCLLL
Chain of UniProt Q00534 (whole entry, looked up): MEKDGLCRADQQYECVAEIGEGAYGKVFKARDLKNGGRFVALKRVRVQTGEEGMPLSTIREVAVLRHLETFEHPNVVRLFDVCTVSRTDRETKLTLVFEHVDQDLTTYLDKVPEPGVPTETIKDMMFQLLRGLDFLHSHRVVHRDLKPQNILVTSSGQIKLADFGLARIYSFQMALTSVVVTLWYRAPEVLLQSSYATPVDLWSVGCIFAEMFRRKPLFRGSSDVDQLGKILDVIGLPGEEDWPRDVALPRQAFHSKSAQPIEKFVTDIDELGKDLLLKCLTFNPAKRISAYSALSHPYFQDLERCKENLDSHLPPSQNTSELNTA
Chain of UniProt Q9H3Y6 (whole entry, looked up): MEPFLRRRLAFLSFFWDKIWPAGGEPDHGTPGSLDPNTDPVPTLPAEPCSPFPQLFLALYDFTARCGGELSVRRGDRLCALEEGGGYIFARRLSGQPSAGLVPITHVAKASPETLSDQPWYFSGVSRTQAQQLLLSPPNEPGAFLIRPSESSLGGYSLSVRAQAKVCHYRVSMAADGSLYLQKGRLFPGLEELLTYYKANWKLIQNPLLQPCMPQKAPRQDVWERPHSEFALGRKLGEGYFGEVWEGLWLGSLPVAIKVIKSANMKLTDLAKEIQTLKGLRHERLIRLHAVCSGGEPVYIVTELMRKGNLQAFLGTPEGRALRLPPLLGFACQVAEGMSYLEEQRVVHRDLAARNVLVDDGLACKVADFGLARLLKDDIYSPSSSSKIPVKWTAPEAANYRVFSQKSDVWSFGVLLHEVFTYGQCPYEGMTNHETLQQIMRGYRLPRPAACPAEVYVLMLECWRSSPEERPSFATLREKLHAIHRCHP
Chain of UniProt Q13164 (whole entry, looked up): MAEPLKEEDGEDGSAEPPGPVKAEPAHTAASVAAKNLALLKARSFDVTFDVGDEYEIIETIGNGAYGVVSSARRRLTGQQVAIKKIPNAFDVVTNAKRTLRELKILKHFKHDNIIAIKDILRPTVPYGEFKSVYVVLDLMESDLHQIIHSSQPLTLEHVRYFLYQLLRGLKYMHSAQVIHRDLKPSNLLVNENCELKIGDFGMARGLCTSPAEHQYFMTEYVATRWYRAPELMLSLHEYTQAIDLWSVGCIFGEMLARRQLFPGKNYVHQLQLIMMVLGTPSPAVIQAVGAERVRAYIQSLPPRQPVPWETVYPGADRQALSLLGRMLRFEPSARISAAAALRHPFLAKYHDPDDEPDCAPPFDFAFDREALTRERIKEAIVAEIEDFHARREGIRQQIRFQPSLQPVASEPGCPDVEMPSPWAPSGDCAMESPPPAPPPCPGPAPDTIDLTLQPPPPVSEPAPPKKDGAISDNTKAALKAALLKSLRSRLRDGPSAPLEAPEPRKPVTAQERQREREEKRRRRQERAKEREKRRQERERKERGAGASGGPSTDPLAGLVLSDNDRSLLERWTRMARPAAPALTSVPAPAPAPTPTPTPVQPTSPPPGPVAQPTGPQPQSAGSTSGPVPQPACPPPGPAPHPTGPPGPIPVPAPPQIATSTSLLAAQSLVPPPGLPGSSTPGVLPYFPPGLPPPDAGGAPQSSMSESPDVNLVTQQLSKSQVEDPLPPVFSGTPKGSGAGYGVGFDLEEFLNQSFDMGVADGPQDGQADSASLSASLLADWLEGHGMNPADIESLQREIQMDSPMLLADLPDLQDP
Chain of UniProt P54762 (whole entry, looked up): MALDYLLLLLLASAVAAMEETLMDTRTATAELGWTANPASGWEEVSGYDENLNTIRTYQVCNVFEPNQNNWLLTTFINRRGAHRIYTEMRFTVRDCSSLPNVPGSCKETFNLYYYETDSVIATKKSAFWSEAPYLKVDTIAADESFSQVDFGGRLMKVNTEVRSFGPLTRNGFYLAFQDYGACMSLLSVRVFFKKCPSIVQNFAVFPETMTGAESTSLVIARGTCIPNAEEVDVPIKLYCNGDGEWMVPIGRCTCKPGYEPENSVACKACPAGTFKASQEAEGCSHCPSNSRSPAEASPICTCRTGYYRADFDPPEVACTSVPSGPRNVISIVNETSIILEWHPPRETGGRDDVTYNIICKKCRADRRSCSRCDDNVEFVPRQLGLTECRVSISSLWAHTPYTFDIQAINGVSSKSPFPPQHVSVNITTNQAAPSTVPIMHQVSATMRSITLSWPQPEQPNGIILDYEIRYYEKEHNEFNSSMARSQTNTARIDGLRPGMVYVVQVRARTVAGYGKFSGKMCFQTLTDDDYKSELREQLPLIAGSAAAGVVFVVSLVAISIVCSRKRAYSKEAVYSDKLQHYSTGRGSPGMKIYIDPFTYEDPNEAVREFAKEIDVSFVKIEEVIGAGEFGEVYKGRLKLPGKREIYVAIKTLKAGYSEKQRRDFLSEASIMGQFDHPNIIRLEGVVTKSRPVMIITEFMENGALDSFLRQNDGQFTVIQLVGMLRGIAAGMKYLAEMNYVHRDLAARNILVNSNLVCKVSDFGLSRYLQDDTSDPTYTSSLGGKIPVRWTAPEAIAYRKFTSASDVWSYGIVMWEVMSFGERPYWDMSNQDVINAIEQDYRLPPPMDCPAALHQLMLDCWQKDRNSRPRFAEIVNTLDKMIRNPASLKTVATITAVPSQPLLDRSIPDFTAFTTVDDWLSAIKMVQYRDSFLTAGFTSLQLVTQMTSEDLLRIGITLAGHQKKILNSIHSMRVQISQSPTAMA
Chain of UniProt Q9P289 (whole entry, looked up): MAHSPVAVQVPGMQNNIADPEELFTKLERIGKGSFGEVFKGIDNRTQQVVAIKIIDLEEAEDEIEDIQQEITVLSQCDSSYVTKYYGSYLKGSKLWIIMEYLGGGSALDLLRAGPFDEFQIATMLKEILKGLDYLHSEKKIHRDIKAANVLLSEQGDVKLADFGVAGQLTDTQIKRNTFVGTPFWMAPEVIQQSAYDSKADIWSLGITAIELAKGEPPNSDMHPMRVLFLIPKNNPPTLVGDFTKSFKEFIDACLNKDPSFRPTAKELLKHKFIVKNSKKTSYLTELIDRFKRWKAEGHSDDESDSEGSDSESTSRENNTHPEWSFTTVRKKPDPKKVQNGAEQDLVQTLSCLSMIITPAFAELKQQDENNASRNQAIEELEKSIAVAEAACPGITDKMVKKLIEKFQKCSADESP
Chain of UniProt P06239 (whole entry, looked up): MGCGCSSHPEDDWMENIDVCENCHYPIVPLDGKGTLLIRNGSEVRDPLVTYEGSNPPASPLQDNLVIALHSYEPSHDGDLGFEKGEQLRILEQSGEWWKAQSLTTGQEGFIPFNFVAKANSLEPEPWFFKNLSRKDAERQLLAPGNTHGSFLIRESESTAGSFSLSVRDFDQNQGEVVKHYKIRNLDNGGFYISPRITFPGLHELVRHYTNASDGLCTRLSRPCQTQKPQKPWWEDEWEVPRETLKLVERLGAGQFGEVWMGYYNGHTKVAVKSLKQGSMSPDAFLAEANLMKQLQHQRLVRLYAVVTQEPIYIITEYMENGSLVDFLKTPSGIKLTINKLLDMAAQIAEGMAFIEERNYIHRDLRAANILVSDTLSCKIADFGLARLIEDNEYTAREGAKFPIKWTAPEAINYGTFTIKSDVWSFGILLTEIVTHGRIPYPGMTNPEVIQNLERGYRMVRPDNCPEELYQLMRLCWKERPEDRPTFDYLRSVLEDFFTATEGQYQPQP

Block 1
Compound: CC(=O)N1CCC(c2ccc(C(=O)NC3=NCCN3)cc2C(F)(F)F)CC1
Observed: cell-free assay
Method: competition with immobilised ligand
Tested at: 1 µM
target | remaining binding [%]
Serine/threonine-protein kinase mTOR (MTOR, Homo sapiens, UniProt P42345) | 67
Fibroblast growth factor receptor 3 (FGFR3, Homo sapiens, UniProt P22607, G697C) | 87
Serine/threonine-protein kinase 25 (STK25, Homo sapiens, UniProt O00506) | 100
Tyrosine-protein kinase Fyn (FYN, Homo sapiens, UniProt P06241) | 76
Protein kinase C eta type (PRKCH, Homo sapiens, UniProt P24723) | 100
Peripheral plasma membrane protein CASK (CASK, Homo sapiens, UniProt O14936) | 85
Atypical kinase COQ8B, mitochondrial (COQ8B, Homo sapiens, UniProt Q96D53) | 97
Tyrosine-protein kinase BTK (BTK, Homo sapiens, UniProt Q06187) | 97
Serine/threonine-protein kinase 26 (STK26, Homo sapiens, UniProt Q9P289) | 89
Tyrosine-protein kinase Lck (LCK, Homo sapiens, UniProt P06239) | 100
Tyrosine-protein kinase CSK (CSK, Homo sapiens, UniProt P41240) | 100
Mitogen-activated protein kinase 7 (MAPK7, Homo sapiens, UniProt Q13164) | 89
G protein-coupled receptor kinase 4 (GRK4, Homo sapiens, UniProt P32298) | 100
Serine/threonine-protein kinase PAK 4 (PAK4, Homo sapiens, UniProt O96013) | 100
Testis-specific serine/threonine-protein kinase 1 (TSSK1B, Homo sapiens, UniProt Q9BXA7) | 100
Mitogen-activated protein kinase kinase kinase 13 (MAP3K13, Homo sapiens, UniProt O43283) | 100
Tyrosine-protein kinase ABL1, non-phosphorylated (ABL1, Homo sapiens, UniProt P00519, Q252H) | 88
Mitogen-activated protein kinase kinase kinase 2 (MAP3K2, Homo sapiens, UniProt Q9Y2U5) | 100
Serine/threonine-protein kinase TBK1 (TBK1, Homo sapiens, UniProt Q9UHD2) | 98
Hormonally up-regulated neu tumor-associated kinase (HUNK, Homo sapiens, UniProt P57058) | 100
Misshapen-like kinase 1 (MINK1, Homo sapiens, UniProt Q8N4C8) | 100
TGF-beta receptor type-2 (TGFBR2, Homo sapiens, UniProt P37173) | 100
Ribosomal protein S6 kinase beta-1 (RPS6KB1, Homo sapiens, UniProt P23443) | 100
Rhodopsin kinase GRK7 (GRK7, Homo sapiens, UniProt Q8WTQ7) | 87
Mitogen-activated protein kinase 14 (MAPK14, Homo sapiens, UniProt Q16539) | 100

Block 2
Species: human
Matrix: microsomes or S9
Tested at: 2 µM
Time: 0.5 h
SMILES | remaining compound [%]
CCn1c2nc(C)cc(C)c2c(=O)n2c(C(=O)O)nnc12 | 64.9
CCN(CCCN1C(=O)CCC1(C)C(=O)NCCC(C)C)c1cccc(C)c1 (centres unmarked) | 4.82
CCc1nc(NCCCn2ccnc2)c2c3c(sc2n1)CCCC3 | 73.7
Nc1ccc(-c2ccc(S(=O)(=O)c3cccc(N)c3)cc2N)cc1 | 31.2
COc1ccc2cc(C(=O)OCc3ccc(-n4nc(C)cc4C)cc3)[nH]c2c1 | 4.37
O=C(NC1CCN(Cc2cccc3c2OCO3)CC1)c1cc2ccccc2o1 | 33
CC1(NC(=O)c2ccc3cc[nH]c3n2)CC=CCC1 (centres unmarked) | 25.2
Cc1ccc(C(OC(=O)CC(C)C)c2cc(=O)cc[nH]2)cc1 (centres unmarked) | 48.4
O=c1[nH]ccn2nc(-c3ccc(F)cc3)c(CO)c12 | > 100

Block 3
SMILES: Nc1ncnc2c1cnn2-c1ccccc1
Observed: enzyme activity
Action: inhibitor
Tested at: 0.5 µM
Relative to: control
target | remaining activity [%]
Tyrosine-protein kinase Srms (SRMS, Homo sapiens, UniProt Q9H3Y6) | 104
Ephrin type-B receptor 4 (EPHB4, Homo sapiens, UniProt P54760) | 103
Serine/threonine-protein kinase WNK3 (WNK3, Homo sapiens, UniProt Q9BYP7) | 97.2
Ephrin type-B receptor 1 (EPHB1, Homo sapiens, UniProt P54762) | 97.5
Serine/threonine-protein kinase 16 (STK16, Homo sapiens, UniProt O75716) | 94.3
Tyrosine-protein kinase receptor UFO (AXL, Homo sapiens, UniProt P30530) | 110
Serine/threonine-protein kinase 17A (STK17A, Homo sapiens, UniProt Q9UEE5) | 102
Homeodomain-interacting protein kinase 2 (HIPK2, Homo sapiens, UniProt Q9H2X6) | 103
Tyrosine-protein kinase Blk (BLK, Homo sapiens, UniProt P51451) | 100
Ribosomal protein S6 kinase alpha-6 (RPS6KA6, Homo sapiens, UniProt Q9UK32) | 94.1
Dual specificity tyrosine-phosphorylation-regulated kinase 3 (DYRK3, Homo sapiens, UniProt O43781) | 96.8
Homeodomain-interacting protein kinase 4 (HIPK4, Homo sapiens, UniProt Q8NE63) | 86.3
Phosphorylase b kinase gamma catalytic chain, skeletal muscle/heart isoform (PHKG1, Homo sapiens, UniProt Q16816) | 94.2
Cyclin-dependent kinase 4, with cyclin D3 (CDK4, Homo sapiens, UniProt P11802) | 94
Cyclin-dependent kinase 6, with cyclin D3 (CDK6, Homo sapiens, UniProt Q00534) | 92.2
MAP kinase-activated protein kinase 3 (MAPKAPK3, Homo sapiens, UniProt Q16644) | 96.6
Testis-specific serine/threonine-protein kinase 2 (TSSK2, Homo sapiens, UniProt Q96PF2) | 106
Ribosomal protein S6 kinase alpha-5 (RPS6KA5, Homo sapiens, UniProt O75582) | 89
Ephrin type-A receptor 4 (EPHA4, Homo sapiens, UniProt P54764) | 96.2
3-phosphoinositide-dependent protein kinase 1 (PDPK1, Homo sapiens, UniProt O15530) | 104
Mitogen-activated protein kinase kinase kinase kinase 4 (MAP4K4, Homo sapiens, UniProt O95819) | 94.4
Cyclin-dependent kinase 1, with cyclin B (CDK1, Homo sapiens, UniProt P06493) | 102
Calcium/calmodulin-dependent protein kinase type II subunit beta (CAMK2B, Homo sapiens, UniProt Q13554) | 97.8

Block 4
Structure (SMILES): CCN(c1nc(N)c(C(=O)N=C(N)N)nc1Cl)C(C)C
Observed: β-arrestin recruitment
Action: agonist
Method: PRESTO-Tango
Tested at: 10 µM
Relative to: untreated
target | fold over basal
N-arachidonyl glycine receptor (GPR18, Homo sapiens, UniProt Q14330) | 0.76
C-C chemokine receptor-like 2 (Homo sapiens, UniProt O00421) | 1.05
Adenosine receptor A2b (ADORA2B, Homo sapiens, UniProt P29275) | 1.02
C-X-C chemokine receptor type 3 (CXCR3, Homo sapiens, UniProt P49682) | 0.81
ADGRF1 (Homo sapiens, UniProt Q5T601) | 0.91

Repeated from above (block 1):
target | remaining binding [%]
Fibroblast growth factor receptor 3 (FGFR3, Homo sapiens, UniProt P22607, G697C) | 87
Tyrosine-protein kinase Fyn (FYN, Homo sapiens, UniProt P06241) | 76
Misshapen-like kinase 1 (MINK1, Homo sapiens, UniProt Q8N4C8) | 100
Tyrosine-protein kinase Lck (LCK, Homo sapiens, UniProt P06239) | 100
Serine/threonine-protein kinase mTOR (MTOR, Homo sapiens, UniProt P42345) | 67
Atypical kinase COQ8B, mitochondrial (COQ8B, Homo sapiens, UniProt Q96D53) | 97
Tyrosine-protein kinase ABL1, non-phosphorylated (ABL1, Homo sapiens, UniProt P00519, Q252H) | 88
